Results gathered from unrelated publications.
Compare with care: the assays were run in different laboratories. ± gives the spread as reported.

SMILES = O=C(N1CCCCC1)C12CC(c3ccccc3)(C1)C2(Br)Br; test = metabolic stability; test system = human, liver microsomes; setting = 2 µM, 15 min, pH 7.4; endpoint = compound remaining; value = 56%
SMILES = Cn1ncc2cc(CN3CCC(F)(F)C(COc4cccc(F)c4)C3)ccc21 (centres unmarked); test = equilibrium dialysis; test system = mouse plasma; endpoint = fu; value = 0.002
SMILES = C=CC(=O)Nc1cc(Nc2nccc(-c3c[nH]c4ccccc34)n2)c(OC)cc1N(C)CCN(C)C; test = storage stability; test system = human dried blood spot; setting = 2 h, on ice, LQC level; endpoint = recovery; value = 101%
SMILES = CC(C(=O)O)n1nc(Cn2cc3cc(OCC[18F])c(Cl)cc3n2)c2ccccc2c1=O (racemic); test system = rat, bone; setting = 2 h; endpoint = tracer uptake; value = 0.1 %ID/g
SMILES = C=C(NC(=O)c1csc(-c2nc3c(cc2O)-c2nc(cs2)C(=O)NC(C(C)O)C(=O)NC(=C(C)OC)c2nc(cs2)C(=O)NC2c4nc(cs4)C(=O)NC(COC(=O)c4c5c6c(cccc6n4O)COC(=O)C(OC4CC(C)(O)C(N(C)C)C(C)O4)C2OC5)c2nc-3cs2)n1)C(N)=O (centres unmarked); test system = male Sprague-Dawley rat, plasma; setting = intravenous, 2 mg/kg, single dose, infusion; endpoint = half-life; value = 2.5 h
SMILES = OC1(C(F)(F)F)CCN(c2nc(Nc3ccnc(C(F)(F)F)c3)nc(-c3cccc(C(F)(F)F)n3)n2)C1 (centres unmarked); test system = monkey, both sexes, plasma; setting = oral, 1 mg/kg, day 1; endpoint = Cmax; value = 155 ± 41.3 ng/mL
SMILES = O=C(NCc1cccc(Cl)c1)c1ccc(C2CCCCC2)cc1; test = hepatocyte stability; test system = cryopreserved mouse hepatocytes; setting = 1 µM; endpoint = hepatic clearance; value = 76 mL/min/kg
SMILES = O=C(Nc1cnccc1-c1ccc([18F])nc1)c1ccnc(NC(=O)C2CC2)c1; test system = FVB/NJ mouse, both sexes, liver; setting = intravenous, 5 min, added: tariquidar 15 mg/kg iv; endpoint = SUV; value = 5.53
SMILES = COc1cccc(OC)c1-c1cc(C(=O)NC2(C(=O)O)C3CC4CC(C3)CC2C4)nn1-c1ccc(C(=O)N(C)CCOCCOCCN(C)C(=O)[C@H](CCCCNC(=O)[C@H](CC(C)C)NC(=O)C2OC2C(=O)O)NC(=O)CN2CCN(CC(=O)[O-])CCN(CC(=O)[O-])CCN(CC(=O)[O-])CC2)cc1C(C)C.[177Lu+3] (mixture of isomers); test system = mouse, HT-29 xenograft; setting = 4 h post injection, biodistribution; scale = baseline: tumour over bone uptake; endpoint = tumour-to-bone ratio; value = 6.47
SMILES = O=C(CC(F)(F)F)Nc1ccc([C@H]2[C@@H](F)[C@@H](F)C[C@@H](F)[C@H]2F)cc1; test = liver microsome stability; test system = cynomolgus liver microsomes; setting = 1 µM; endpoint = hepatic clearance; value = 8 mL/min/kg
SMILES = COC1C(c2ccc(Cl)c(Cc3ccc(OC4CCOC4)cc3)c2)OC(CO)C(O)C1O (centres unmarked); test system = human plasma; setting = 1 µM, 5 h; endpoint = unbound fraction; value = 0.161
SMILES = O=C(Nc1ccc([C@H]2[C@@H](F)[C@@H](F)C[C@@H](F)[C@H]2F)cc1)C1CC1(F)F (some centres unmarked); test = liver microsome stability; test system = dog liver microsomes; setting = 1 µM; endpoint = hepatic clearance; value = 12 mL/min/kg
SMILES = C/C(N)=N/C(=N\S(=O)(=O)c1ccc(C(F)(F)F)cc1)N1C[C@H](c2ccccc2)C(c2ccc(Cl)cc2)=N1; test system = male C57BL/6 mouse, muscle; setting = intravenous, 10 mg/kg; endpoint = half-life; value = 2.5 h
SMILES = c1cc(C2CCCCC2)ccc1-c1ccc(N2CCCC2)nc1; test = hepatocyte stability; test system = cryopreserved rat hepatocytes; setting = 1 µM; endpoint = hepatic clearance; value = 20 mL/min/kg
SMILES = C=C1C[C@]2(C(=O)OC)C=C(C(=O)Nc3cccc(C(=O)Nc4ccc(Nc5nccc(-c6cccnc6)n5)c(C)c4)c3)C(=O)[C@H]1C2; test system = Wistar rat male, blood plasma; setting = 10 µM, 60 min; endpoint = compound remaining; value = 0.99%
SMILES = Nc1ncc(-c2ccc(C3CCCCC3)cc2)cn1; test = hepatocyte stability; test system = cryopreserved mouse hepatocytes; setting = 1 µM; endpoint = hepatic clearance; value = 70 mL/min/kg
SMILES = CCN(CC)c1ccc2c(c1)O[B-]1(c3ccccc3)OC(=O)C(c3ccccc3)=N[N+]1=C2C (centres unmarked); test system = toluene; endpoint = fluorescence emission maximum; value = 510 nm

Repeated from above:
SMILES = O=C(Nc1cnccc1-c1ccc([18F])nc1)c1ccnc(NC(=O)C2CC2)c1; test system = FVB/NJ mouse, both sexes, liver; setting = intravenous, 5 min, added: tariquidar 15 mg/kg iv; endpoint = SUV; value = 5.53
SMILES = COc1cccc(OC)c1-c1cc(C(=O)NC2(C(=O)O)C3CC4CC(C3)CC2C4)nn1-c1ccc(C(=O)N(C)CCOCCOCCN(C)C(=O)[C@H](CCCCNC(=O)[C@H](CC(C)C)NC(=O)C2OC2C(=O)O)NC(=O)CN2CCN(CC(=O)[O-])CCN(CC(=O)[O-])CCN(CC(=O)[O-])CC2)cc1C(C)C.[177Lu+3] (mixture of isomers); test system = mouse, HT-29 xenograft; setting = 4 h post injection, biodistribution; scale = baseline: tumour over bone uptake; endpoint = tumour-to-bone ratio; value = 6.47
SMILES = O=C(CC(F)(F)F)Nc1ccc([C@H]2[C@@H](F)[C@@H](F)C[C@@H](F)[C@H]2F)cc1; test = liver microsome stability; test system = cynomolgus liver microsomes; setting = 1 µM; endpoint = hepatic clearance; value = 8 mL/min/kg
